Experimental data of several laboratories.
B1: KtrC (Bacillus subtilis, UniProt P39760); sequence looked up; chain MKKEFAVIGLGRFGGSICKALSEEGVEVMAMDIDEDKVNEYAKIASHAVIGDSTDESVLKNLGLRNFDHVIVAIGENIQASILTTLILKELGVHTITVKAQNDYHEKVLSKIGADHIVHPERDMAKRIAHNIVSNNVLDYLELSEEHSLVEIVANSRLAGNTLLDLDIRAKYGINIVAIKRGKEVIVSPLATEVIHQEDILIVIGSVTDISRFEKRVLHTK
B2: ptsO 1-85 (Escherichia coli, UniProt P0A9N0); sequence looked up; chain MTVKQTVEITNKLGMHARPAMKLFELMQGFDAEVLLRNDEGTEAEANSVIALLMLDSAKGRQIEVEATGPQEEEALAAVIALFNS
B3: SIN4 1-974 (Saccharomyces cerevisiae, UniProt P32259); chain MMLGEHLMSWSKTGIIAYSDSQSSNANICLTFLESINGINWRFHTPQKYVLHPQLHEVQYQESSSTLSTHSTTTSVNGSTTAGVGSTPNFGGNSNKSPPQFFYNISSIHWNNWFSLPGDMLAVCDELGNMTMLITGQRPDRATTYEKLTMVFQDNVYKIYNHVMPLKPVDKLKPMNIERKQTRKEYNTSILEFRWLTSSKSVIVSQFCAFDSSSNTYRSRAQQVPPYGVYHPPFIKYACLAIRKNGQIDFWYQFSNSKDHKKITLQLLDTSNQRFKDLQWLEFARITPMNDDQCMLITTYSKLSKNISFYKLHVNWNLNATKPNVLNDPSLKIQFILSTTLDPTDDEGHVLKLENLHVVSKSSIEKDPSPEILVLYNVCDTSKSLVKRYRLAPTQLSAEYLVILKPDLNIDRNNSTNQIFQSRRYNLRRHSDIVLDKKVTLITSEMFDAFVSFYFEDGTIESYNQNDWKLETERLISQSQLGKFKNIIASPLSAGFNYGKLPLPPSVEWMKVSPSMCGVIVKQYNKKWPQFYAAVQKNYADPEKDSINATALAFGYVKSLHKQISAEDLTIAAKTHILRISFLDRKRAKEFITTLLKSLYSFFNISPDAPKEIMDKIITSRPLQKIMLLQLELGSCFSQENIEEMARVILYLKNVLFAFNGVARNFHFAIEQISNNSNQQQNPKLFQTIFSKQDLIHSLIPVAKWFVKFITYLTQEILILINDPTNKEYTLVHGIFGAKMSRTLILSILNEIKKVTQIVAKFPETSYPILNESSTFLKLVLSESPVDFEKFETFLVDVNNKFIALCEQQPSQEREFSLLVKAEIPPEYAKVGDFLLQYANNAVISHANAAAVYFADTSGLKISNSEFFNPEIFHLLQPLEEGLIIDTDKLPIKNRTSKSFSKLLYDDVTCDKLSVSEISDGKLKRCSRCGSVTRAGNIISSDKTIVPTSIQTKRWPTMYTRLCICSGMLFEMDG
B4: mdfA (Bacillus subtilis, UniProt O31597); chain MLFLHDVWVNWFEGEENGYNVCHFHEWRKEDTVELLDQVPLLRVPSVLFHYIENDLSELPKGLLEDVHQKSYIRKNHERTKLEYCFVVTDGIGILAVDTIGYTIPVRKSRLIPRQEQLVYEMVKDVEPETYEFEPKKLESSKEYHILSLAPEHVRGLTRKERQIKQLMFMALDQLKGLKNRAEIGYWYTEWNPHMYEQIKRMSFEEIWDMLYNETIEGWSDKHLAFCENLIKGQPFFEKLWEMENESKVN
B5: NOTCH3 EGF5-12 197-505 (Homo sapiens, UniProt Q9UM47); sequence looked up; chain PAVPCAPSPCRNGGTCRQSGDLTYDCACLPGFEGQNCEVNVDDCPGHRCLNGGTCVDGVNTYNCQCPPEWTGQFCTEDVDECQLQPNACHNGGTCFNTLGGHSCVCVNGWTGESCSQNIDDCATAVCFHGATCHDRVASFYCACPMGKTGLLCHLDDACVSNPCHEDAICDTNPVNGRAICTCPPGFTGGACDQDVDECSIGANPCEHLGRCVNTQGSFLCQCGRGYTGPRCETDVNECLSGPCRNQATCLDRIGQFTCICMAGFTGTYCEVDIDECQSSPCVNGGVCKDRVNGFSCTCPSGFSGSTCQ
B6: ATG9 1-100 (Saccharomyces cerevisiae, UniProt Q12142); sequence looked up; chain MERDEYQLPNSHGKNTFLSRIFGLQSDEVNPSLNSQEMSNFPLPDIERGSSLLHSTNDSREDVDENDLRVPESDQGTSTEEEDEVDEEQVQAYAPQISDG
B7: RB1CC1 1490-1594 (Homo sapiens, UniProt Q8TDY2); chain SRHSEKIAIRDFQVGDLVLIILDERHDNYVLFTVSPTLYFLHSESLPALDLKPGEGASGASRRPWVLGKVMEKEYCQAKKAQNRFKVPLGTKFYRVKAVSWNKKV
B8: PFD3 (Arabidopsis thaliana, UniProt P57741); sequence looked up; chain MSSSSPSGSGSDLTERRGIPAAKFIQDVETYLSQSGLDPNSALAFHQERLQQYKVVEMKLLAQQRDLQAKIPDIEKCLEVVATLEAKKGTGEALLADFEVSEGIYSRACIEDTDSVCLWLGANVMLEYSCEEASALLKNNLENAKASLEVLVADLQFLRDQVTVTQVTIARVYNWDVHQRRVKQVTPTAIAVADS
B9: ERRFI1 330-399 E370K (human, UniProt Q9UJM3); N-terminal FITC; sequence looked up; chain SRTPSPKSLPSYLNGVMPPTQSFAPDPKYVSSKALQRQNSKGSASKVPCILPIIENGKKVSSTHYYLLPE
B10: TOMM20 cytosolic domain, 62-127 Q105E (Homo sapiens, UniProt Q15388); chain CDAEAVQKFFLEEIQLGEELLAQGEYEKGVDHLTNAIAVCGQPQELLQVLQQTLPPPVFQMLLTKLP
B11: SF3B1 454-1304 K700E (Homo sapiens, UniProt O75533); chain KSVNDQPSGNLPFLKPDDIQYFDKLLVDVDESTLSPEEQKERKIMKLLLKIKNGTPPMRKAALRQITDKAREFGAGPLFNQILPLLMSPTLEDQERHLLVKVIDRILYKLDDLVRPYVHKILVVIEPLLIDEDYYARVEGREIISNLAKAAGLATMISTMRPDIDNMDEYVRNTTARAFAVVASALGIPSLLPFLKAVCKSKKSWQARHTGIKIVQQIAILMGCAILPHLRSLVEIIEHGLVDEQQEVRTISALAIAALAEAATPYGIESFDSVLKPLWKGIRQHRGKGLAAFLKAIGYLIPLMDAEYANYYTREVMLILIREFQSPDEEMKKIVLKVVKQCCGTDGVEANYIKTEILPPFFKHFWQHRMALDRRNYRQLVDTTVELANKVGAAEIISRIVDDLKDEAEQYRKMVMETIEKIMGNLGAADIDHKLEEQLIDGILYAFQEQTTEDSVMLNGFGTVVNALGKRVKPYLPQICGTVLWRLNNKSAKVRQQAADLISRTAVVMKTCQEEKLMGHLGVVLYEYLGEEYPEVLGSILGALKAIVNVIGMHKMTPPIKDLLPRLTPILKNRHEKVQENCIDLVGRIADRGAEYVSAREWMRICFELLELLKAHKKAIRRATVNTFGYIAKAIGPHDVLATLLNNLKVQERQNRVCTTVAIAIVAETCSPFTVLPALMNEYRVPELNVQNGVLKSLSFLFEYIGEMGKDYIYAVTPLLEDALMDRDLVHRQTASAVVQHMSLGVYGFGCEDSLNHLLNYVWPNVFETSPHVIQAVMGALEGLRVAIGPCRMLQYCLQGLFHPARKVRDVYWKIYNSIYIGSQDALIAHYPRIYNDDKNTYIRYELDYIL
B12: PF-04518600 IgG; V domains shown; VH EVQLVESGGGLVQPGGSLRLSCAASGFTFSSYSMNWVRQAPGKGLEWVSYISSSSSTIDYADSVKGRFTISRDNAKNSLYLQMNSLRDEDTAVYYCARESGWYLFDYWGQGTLVTVSS; VL DIQMTQSPSSLSASVGDRVTITCRASQGISSWLAWYQQKPEKAPKSLIYAASSLQSGVPSRFSGSGSGTDFTLTISSLQPEDFATYYCQQYNSYPPTFGGGTKVEIK
B13: AEBP2 407-517 (Homo sapiens, UniProt Q6ZN18); sequence looked up; chain RHRAICFNLSAHIESLGKGHSVVFHSTVIAKRKEDSGKIKLLLHWMPEDILPDVWVNESERHQLKTKVVHLSKLPKDTALLLDPNIYRTMPQKRLKRTLIRKVFNLYLSKQ
UniProt Q00610, sequence (whole entry, looked up): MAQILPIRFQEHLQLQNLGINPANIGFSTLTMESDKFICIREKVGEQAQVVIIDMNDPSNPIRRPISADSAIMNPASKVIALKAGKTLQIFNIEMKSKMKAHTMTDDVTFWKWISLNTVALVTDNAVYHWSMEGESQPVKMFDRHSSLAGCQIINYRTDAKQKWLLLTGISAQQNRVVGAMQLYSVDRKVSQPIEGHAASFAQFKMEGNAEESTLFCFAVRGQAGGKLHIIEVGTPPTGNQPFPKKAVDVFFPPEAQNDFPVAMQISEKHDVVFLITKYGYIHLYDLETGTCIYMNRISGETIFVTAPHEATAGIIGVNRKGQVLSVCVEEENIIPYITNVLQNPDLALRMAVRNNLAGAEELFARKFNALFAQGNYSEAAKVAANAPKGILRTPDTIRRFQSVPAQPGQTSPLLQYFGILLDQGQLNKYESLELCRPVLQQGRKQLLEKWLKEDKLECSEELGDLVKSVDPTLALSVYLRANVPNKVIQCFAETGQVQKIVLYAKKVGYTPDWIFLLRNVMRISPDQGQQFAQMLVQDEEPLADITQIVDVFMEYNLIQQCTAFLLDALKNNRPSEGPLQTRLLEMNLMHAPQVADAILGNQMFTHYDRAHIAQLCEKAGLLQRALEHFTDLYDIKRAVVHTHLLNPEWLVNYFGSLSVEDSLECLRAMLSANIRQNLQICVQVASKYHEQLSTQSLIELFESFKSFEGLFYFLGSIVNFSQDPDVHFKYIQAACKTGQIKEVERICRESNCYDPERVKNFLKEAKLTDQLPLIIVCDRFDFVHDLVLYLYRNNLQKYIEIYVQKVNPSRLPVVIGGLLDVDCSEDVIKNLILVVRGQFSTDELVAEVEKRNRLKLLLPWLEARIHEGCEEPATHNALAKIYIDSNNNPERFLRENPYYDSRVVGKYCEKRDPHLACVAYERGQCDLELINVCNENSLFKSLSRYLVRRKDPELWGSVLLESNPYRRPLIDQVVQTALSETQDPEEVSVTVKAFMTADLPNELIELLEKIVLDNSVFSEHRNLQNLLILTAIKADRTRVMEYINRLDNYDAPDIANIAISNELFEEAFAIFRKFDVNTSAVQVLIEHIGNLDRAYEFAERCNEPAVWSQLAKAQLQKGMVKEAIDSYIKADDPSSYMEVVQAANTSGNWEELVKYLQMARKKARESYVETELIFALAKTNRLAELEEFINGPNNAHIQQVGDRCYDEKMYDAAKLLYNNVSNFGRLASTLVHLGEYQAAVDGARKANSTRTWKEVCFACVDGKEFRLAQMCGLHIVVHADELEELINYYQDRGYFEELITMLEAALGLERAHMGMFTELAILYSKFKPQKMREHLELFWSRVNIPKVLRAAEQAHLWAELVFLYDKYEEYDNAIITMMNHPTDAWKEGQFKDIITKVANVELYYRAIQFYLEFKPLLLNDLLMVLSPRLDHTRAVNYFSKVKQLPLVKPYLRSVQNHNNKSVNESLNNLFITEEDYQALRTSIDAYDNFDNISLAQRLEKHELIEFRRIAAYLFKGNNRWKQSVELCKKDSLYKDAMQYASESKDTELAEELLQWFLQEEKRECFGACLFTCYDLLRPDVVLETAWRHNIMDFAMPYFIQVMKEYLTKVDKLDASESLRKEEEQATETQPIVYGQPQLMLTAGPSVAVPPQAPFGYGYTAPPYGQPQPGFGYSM
UniProt O60921, sequence (whole entry, looked up): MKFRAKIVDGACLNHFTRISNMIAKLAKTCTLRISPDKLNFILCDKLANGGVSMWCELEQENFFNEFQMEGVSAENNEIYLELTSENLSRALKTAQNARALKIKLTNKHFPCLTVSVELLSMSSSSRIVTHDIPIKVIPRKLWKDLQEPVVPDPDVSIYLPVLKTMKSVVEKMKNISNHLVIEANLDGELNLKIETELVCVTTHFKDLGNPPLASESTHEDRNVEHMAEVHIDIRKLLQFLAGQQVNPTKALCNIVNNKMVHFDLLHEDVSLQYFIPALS
UniProt Q06671, sequence (whole entry, unmodified, looked up): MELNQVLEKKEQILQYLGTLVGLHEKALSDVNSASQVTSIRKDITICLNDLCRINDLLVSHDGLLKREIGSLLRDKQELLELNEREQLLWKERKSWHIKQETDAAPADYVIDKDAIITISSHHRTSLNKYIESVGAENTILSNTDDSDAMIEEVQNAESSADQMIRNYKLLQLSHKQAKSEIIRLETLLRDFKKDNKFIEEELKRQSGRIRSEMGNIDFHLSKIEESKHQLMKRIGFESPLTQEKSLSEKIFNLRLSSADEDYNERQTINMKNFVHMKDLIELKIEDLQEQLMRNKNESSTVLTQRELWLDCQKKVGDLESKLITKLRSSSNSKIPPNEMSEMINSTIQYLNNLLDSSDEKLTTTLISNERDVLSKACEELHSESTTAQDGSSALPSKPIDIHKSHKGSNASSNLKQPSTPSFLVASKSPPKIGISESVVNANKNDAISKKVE
UniProt P18858, sequence (whole entry, unmodified, looked up): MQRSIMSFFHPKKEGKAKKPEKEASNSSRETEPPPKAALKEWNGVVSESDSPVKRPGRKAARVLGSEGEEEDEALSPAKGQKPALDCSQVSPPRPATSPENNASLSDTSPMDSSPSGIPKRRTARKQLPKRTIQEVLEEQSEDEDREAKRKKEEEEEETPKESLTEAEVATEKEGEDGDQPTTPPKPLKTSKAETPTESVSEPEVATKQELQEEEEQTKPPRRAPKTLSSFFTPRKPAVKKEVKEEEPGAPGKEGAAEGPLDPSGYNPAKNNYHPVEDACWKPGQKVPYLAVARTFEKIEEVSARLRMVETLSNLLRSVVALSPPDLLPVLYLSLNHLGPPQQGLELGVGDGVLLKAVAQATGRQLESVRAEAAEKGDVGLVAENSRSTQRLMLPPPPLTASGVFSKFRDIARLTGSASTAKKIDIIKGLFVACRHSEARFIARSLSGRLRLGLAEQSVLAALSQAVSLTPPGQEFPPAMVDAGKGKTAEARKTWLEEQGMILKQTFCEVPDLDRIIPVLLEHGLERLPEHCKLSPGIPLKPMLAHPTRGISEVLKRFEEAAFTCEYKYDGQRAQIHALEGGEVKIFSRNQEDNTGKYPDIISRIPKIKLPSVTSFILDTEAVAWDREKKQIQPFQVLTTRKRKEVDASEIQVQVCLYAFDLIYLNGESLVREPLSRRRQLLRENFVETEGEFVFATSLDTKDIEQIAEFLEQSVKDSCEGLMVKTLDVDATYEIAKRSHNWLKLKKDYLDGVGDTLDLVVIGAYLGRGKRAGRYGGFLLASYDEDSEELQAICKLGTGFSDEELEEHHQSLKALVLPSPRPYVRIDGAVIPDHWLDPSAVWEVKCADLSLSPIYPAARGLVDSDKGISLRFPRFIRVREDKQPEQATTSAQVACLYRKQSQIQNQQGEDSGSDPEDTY
UniProt Q9NR61, sequence (whole entry, unmodified, looked up): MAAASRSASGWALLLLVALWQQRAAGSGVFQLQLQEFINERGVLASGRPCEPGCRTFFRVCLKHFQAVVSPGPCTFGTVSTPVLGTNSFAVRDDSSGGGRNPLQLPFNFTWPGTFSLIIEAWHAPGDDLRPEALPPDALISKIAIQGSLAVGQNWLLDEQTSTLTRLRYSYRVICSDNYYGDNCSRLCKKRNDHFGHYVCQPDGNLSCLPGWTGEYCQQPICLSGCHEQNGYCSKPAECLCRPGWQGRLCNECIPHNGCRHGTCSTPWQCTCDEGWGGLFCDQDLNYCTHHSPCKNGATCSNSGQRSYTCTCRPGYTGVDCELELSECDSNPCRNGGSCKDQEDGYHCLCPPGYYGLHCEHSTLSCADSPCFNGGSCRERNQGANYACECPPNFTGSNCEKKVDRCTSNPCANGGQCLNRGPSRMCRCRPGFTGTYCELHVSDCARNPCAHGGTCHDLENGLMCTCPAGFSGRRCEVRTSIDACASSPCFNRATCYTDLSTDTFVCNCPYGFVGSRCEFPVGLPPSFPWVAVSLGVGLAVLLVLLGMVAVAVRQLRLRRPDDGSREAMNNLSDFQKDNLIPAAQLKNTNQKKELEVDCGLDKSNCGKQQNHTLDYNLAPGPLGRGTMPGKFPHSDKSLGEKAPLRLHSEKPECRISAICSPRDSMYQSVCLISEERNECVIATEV
UniProt Q9BWJ5, sequence (whole entry, looked up): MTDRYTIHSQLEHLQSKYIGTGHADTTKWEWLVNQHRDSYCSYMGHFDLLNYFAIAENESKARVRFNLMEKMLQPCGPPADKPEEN
UniProt Q9LIE5, sequence (whole entry, looked up): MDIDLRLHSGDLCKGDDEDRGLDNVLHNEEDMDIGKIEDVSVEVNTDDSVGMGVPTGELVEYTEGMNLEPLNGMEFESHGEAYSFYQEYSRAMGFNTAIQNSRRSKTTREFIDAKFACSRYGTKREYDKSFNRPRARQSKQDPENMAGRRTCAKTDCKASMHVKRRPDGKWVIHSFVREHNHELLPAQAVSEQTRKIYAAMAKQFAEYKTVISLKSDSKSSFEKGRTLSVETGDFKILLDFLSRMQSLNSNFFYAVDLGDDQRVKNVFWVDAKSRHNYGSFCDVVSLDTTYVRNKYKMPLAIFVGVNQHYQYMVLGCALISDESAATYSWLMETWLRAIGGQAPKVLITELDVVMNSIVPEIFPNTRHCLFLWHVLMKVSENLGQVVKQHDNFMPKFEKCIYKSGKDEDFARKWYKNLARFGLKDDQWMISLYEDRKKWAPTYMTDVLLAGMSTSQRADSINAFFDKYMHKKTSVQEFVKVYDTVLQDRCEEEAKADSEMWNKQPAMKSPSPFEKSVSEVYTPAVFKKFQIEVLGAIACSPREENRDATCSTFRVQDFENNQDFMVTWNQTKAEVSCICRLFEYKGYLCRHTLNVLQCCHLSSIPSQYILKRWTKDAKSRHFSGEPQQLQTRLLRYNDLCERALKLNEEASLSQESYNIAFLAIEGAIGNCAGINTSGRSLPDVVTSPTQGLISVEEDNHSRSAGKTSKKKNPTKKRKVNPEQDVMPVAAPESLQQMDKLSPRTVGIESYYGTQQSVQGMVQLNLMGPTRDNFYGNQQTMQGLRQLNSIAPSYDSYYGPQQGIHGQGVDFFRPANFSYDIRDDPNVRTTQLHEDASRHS
UniProt P84090, sequence (whole entry, unmodified, looked up): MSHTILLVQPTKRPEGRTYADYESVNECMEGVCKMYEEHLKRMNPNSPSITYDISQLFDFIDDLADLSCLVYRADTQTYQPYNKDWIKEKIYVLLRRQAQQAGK

Molecule	tested on	test	system	setting	scale	measurement	result
human VCP	PP6C (human)	co-immunoprecipitation, IP-MS	CYB5R4 knockout cells	concentration not given	reference: CYB5R4 knockout over parental	log2 fold change	0.16
NGVGGSWGVFSSGESPAIVPD (TET3 1450-1470 (Homo sapiens, UniProt O43151); sequence looked up)	KMT2D 1503-1562 (Homo sapiens, UniProt O14686)	NMR				binding	binds
B1 (KtrC)	ktrA (Bacillus subtilis, UniProt O32080)	pull-down		without c-di-AMP, in vitro		binding	binds
LVLAMWKAGFFKRNR (ITGA2B cytoplasmic tail)	Cib1 (Mus musculus, UniProt Q9Z0F4)	ELISA	peptide			binding	binds
GMERTVVMDKSKGEPVISVKTT (SAFB2 567-588 (Homo sapiens, UniProt Q14151))	ERH 1-104 E30R/E37R (Homo sapiens, UniProt P84090)	pull-down				binding	binds
ESPYQELQGQRSDVYSDLNT (TYROBP 88-107; phosphotyrosine)	SYK (Homo sapiens, UniProt P43405)	FIDA	peptide			binding	binds
B2 (ptsO 1-85)	ptsP 170-424 (Escherichia coli, UniProt P37177)	SPR				binding	binds
B3 (SIN4 1-974)	NUT1 1-1132 (Saccharomyces cerevisiae, UniProt P53114)	cryo-EM				binding	binds
B4 (mdfA)	clpC E280A/E618A (Bacillus subtilis, UniProt P37571)	SEC		with: ATP		binding	binds
B5 (NOTCH3 EGF5-12 197-505)	DLL4 27-400 N257P/T271L/F280Y/S301R/Q305P (Homo sapiens, UniProt Q9NR61)	SPR				binding	binds
prohibitin-2, human	CYB5R4 knockout human cells	PP4 interaction, 3xFLAG-PP4C IP-MS		concentration not given	reference: CYB5R4 KO over parental	log2 fold change	-0.31
B6 (ATG9 1-100)	Atg23 full-length, dimer (yeast, UniProt Q06671)	pull-down		5 µM, 15 min, pH 8, 4 °C, NaCl 150 mM		binding	binds
B7 (RB1CC1 1490-1594)	CALCOCO2 128-316 (Homo sapiens, UniProt Q13137)	SEC				binding	binds
B8 (PFD3)	FHY3 (Arabidopsis thaliana, UniProt Q9LIE5)	pull-down				binding	binds
B9 (ERRFI1 330-399 E370K)	EGFR 696-1022 (Homo sapiens, UniProt P00533)	fluorescence polarization		apparent		binding	binds
GTSSFKESALRKQSLYLKFDPLLRDSPGR (TACC3 545-573 (Homo sapiens, UniProt Q9Y6A5); pS558; sequence looked up)	CLTC 358-574 (Homo sapiens, UniProt Q00610)	NMR titration				binding	binds
HUS1 (Homo sapiens, UniProt O60921)	LIG1 233-919 (Homo sapiens, UniProt P18858)	pull-down		1 hr, 4 °C		binding	binds
B6 (ATG9 1-100)	ATG23 A377E (Saccharomyces cerevisiae, UniProt Q06671)	pull-down		15 minutes, 4 °C		binding	binds
B10	Fem1b (Mus musculus, UniProt Q9Z2G0)	fluorescence polarisation				binding	binds
B11 (SF3B1 454-1304 K700E)	SF3B5 (Homo sapiens, UniProt Q9BWJ5)	cryo-EM				binding	binds
B12 (PF-04518600 IgG)	TNFRSF4 (Homo sapiens, UniProt P43489)	flow cytometry	antibody, HEK293T	in cells		binding	binds
RAD52 (Homo sapiens, UniProt P43351)	SETX (Homo sapiens, UniProt Q7Z333)	pull-down				binding	binds
B13 (AEBP2 407-517)	SUZ12/RBBP4 SUZ12 76-545 (Homo sapiens)	SEC				binding	binds
